Earlier results that unrelated publications cite.
Numbered parts are unrelated; values within a part may stem from several laboratories.

Block 1
Substance: melittin
Setting: literature value
It gave 12.5 µM for MIC (Klebsiella pneumoniae; ATCC 700603).
The MIC was 12.5 µM (Escherichia coli; ATCC 25922).
For Enterococcus faecalis; KCTC 3511: MIC read 3.1 µM.

Mixed results
Read-out: binding
B1: CCL4; sequence looked up; chain APMGSDPPTACCFSYTARKLPRNFVVDYYETSSLCSQPAVVFQTKRSKQVCADPSESWVQEYVYDLELN
B2: CX3CL1, human; sequence looked up; chain QHHGVTKCNITCSKMTSKIPVALLIHYQQNQASCGKRAIILETRQHRLFCADPKEQWVKDAMQHLDRQAAALTRNGGTFEKQIGEVKPRTTPAAGGMDESVVLEPEATGESSSLEPTPSSQEAQRALGTSPELPTGVTGSSGTRLPPTPKAQDGGPVGTELFRVPPVSTAATWQSSAPHQPGPSLWAEAKTSEAPSTQDPSTQASTASSPAPEENAPSEGQRVWGQGQSPRPENSLEREEMGPVPAHTDAFQDWGPGSMAHVSVVPVSSEGTPSREPVASGSWTPKAEEPIHATMDPQRLGVLITPVPDAQAATRRQAVGLLAFLGLLFCLGVAMFTYQSLQGCPRKMAGEMAEGLRYIPRSCGSNSYVLVPV
`CCL5` has a Kd of 2 nM (US28 T11A; radioligand competition).
For `DPDPE`, the Ki was 0.5 to 3.98 nM (human opioid receptor DOP).
For `B1 (CCL4)`, the Kd was 18.4 nM (US28 F14A; radioligand competition).
The Kd of `[3H]Neurotensin` is reported as 9.8 nM (NTS receptor; radioligand binding; forebrain membranes).
`CCL3` gave a Kd of 15 nM (US28 F14A; radioligand competition).
`B2 (CX3CL1, human)` has a Kd of 0.4 nM (US28 T12A; radioligand competition).

Some of these lines once more (mixed results):
The Kd of `[3H]Neurotensin` is reported as 9.8 nM (NTS receptor; radioligand binding; forebrain membranes).
